Published values gathered from unrelated publications.
Parts stem from different laboratories: compare values within a part only.
Chain of UniProt Q9UK32 (whole entry, looked up): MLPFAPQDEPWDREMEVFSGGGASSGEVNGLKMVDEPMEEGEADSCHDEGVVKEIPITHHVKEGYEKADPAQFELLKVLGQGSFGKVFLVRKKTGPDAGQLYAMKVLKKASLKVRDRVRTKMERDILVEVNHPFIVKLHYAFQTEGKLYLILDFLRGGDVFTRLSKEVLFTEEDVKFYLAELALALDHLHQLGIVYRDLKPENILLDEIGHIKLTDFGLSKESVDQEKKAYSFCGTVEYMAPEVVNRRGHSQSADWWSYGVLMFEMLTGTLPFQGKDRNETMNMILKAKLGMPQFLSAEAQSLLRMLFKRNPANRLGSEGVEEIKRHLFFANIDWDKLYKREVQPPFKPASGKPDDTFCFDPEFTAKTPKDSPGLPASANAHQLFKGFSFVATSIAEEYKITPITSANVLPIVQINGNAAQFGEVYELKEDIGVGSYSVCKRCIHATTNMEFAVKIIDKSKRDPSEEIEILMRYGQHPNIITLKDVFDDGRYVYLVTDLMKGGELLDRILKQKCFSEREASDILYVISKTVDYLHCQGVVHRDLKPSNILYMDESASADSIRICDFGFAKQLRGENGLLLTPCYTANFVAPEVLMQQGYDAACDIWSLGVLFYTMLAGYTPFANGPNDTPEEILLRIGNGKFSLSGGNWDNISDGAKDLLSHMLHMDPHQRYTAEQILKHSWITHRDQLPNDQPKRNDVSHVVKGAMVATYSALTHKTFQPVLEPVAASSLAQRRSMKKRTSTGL
Chain of UniProt O15530 (whole entry, looked up): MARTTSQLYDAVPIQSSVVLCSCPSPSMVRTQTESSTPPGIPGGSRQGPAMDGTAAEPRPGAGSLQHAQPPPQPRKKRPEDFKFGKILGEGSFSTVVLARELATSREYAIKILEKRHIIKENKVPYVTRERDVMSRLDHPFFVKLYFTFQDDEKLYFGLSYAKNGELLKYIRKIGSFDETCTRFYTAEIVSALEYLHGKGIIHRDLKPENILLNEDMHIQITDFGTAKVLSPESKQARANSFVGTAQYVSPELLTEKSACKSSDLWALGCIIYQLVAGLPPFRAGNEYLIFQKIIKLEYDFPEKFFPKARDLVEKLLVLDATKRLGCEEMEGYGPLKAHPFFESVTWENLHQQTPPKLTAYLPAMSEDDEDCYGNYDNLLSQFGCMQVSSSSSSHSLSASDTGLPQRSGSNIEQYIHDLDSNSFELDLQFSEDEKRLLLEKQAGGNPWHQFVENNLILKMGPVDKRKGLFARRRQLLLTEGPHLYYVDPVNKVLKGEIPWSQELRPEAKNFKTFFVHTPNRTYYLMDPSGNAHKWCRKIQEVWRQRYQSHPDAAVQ
Chain of UniProt Q13554 (whole entry, looked up): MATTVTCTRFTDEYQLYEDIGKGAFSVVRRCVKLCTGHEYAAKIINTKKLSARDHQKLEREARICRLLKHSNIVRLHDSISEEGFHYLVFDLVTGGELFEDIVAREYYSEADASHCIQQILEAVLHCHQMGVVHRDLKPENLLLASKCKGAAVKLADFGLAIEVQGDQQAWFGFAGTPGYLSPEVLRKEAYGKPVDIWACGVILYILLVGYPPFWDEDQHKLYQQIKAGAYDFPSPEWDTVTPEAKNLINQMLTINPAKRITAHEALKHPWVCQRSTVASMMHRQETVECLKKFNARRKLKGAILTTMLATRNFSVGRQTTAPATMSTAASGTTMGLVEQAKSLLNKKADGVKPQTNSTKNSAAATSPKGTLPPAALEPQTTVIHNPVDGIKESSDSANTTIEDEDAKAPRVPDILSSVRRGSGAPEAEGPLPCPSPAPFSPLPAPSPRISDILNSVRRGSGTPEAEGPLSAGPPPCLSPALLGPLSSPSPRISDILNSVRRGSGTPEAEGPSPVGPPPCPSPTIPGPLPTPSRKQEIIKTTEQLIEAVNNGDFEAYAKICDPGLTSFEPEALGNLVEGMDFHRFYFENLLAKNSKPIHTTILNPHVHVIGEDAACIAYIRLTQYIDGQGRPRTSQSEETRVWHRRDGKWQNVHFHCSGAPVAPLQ
Chain of UniProt Q9H2X6 (whole entry, looked up): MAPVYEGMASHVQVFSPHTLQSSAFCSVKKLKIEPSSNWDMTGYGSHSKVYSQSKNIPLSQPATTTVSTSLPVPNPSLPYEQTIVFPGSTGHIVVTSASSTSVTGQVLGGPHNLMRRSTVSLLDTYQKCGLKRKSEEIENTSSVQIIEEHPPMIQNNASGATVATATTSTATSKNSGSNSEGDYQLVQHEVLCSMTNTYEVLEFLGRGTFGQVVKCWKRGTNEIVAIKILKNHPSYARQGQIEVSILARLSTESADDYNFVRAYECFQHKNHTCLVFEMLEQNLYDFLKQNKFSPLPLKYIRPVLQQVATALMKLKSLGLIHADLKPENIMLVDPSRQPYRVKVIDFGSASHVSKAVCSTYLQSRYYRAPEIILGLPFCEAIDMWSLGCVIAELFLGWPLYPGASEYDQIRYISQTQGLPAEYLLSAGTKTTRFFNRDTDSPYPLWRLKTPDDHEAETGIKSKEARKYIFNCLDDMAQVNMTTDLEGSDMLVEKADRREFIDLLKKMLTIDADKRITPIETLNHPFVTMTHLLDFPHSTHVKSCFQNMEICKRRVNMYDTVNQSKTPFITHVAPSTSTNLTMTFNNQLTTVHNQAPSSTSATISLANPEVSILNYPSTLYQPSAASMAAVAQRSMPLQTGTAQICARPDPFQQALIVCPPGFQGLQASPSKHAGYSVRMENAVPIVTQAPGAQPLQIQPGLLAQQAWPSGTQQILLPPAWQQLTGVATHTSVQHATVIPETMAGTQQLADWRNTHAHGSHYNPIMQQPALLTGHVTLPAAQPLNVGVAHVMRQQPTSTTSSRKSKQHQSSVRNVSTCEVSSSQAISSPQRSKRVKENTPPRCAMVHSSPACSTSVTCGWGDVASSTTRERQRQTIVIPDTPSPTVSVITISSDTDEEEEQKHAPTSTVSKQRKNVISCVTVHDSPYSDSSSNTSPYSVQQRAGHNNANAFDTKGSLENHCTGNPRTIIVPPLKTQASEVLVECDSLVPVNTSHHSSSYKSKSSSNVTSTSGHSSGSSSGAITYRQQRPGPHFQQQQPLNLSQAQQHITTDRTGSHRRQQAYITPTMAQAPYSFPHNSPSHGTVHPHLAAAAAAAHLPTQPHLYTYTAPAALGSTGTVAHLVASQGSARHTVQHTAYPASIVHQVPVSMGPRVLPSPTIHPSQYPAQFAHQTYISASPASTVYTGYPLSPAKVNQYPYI
Chain of UniProt P00519 (whole entry, looked up): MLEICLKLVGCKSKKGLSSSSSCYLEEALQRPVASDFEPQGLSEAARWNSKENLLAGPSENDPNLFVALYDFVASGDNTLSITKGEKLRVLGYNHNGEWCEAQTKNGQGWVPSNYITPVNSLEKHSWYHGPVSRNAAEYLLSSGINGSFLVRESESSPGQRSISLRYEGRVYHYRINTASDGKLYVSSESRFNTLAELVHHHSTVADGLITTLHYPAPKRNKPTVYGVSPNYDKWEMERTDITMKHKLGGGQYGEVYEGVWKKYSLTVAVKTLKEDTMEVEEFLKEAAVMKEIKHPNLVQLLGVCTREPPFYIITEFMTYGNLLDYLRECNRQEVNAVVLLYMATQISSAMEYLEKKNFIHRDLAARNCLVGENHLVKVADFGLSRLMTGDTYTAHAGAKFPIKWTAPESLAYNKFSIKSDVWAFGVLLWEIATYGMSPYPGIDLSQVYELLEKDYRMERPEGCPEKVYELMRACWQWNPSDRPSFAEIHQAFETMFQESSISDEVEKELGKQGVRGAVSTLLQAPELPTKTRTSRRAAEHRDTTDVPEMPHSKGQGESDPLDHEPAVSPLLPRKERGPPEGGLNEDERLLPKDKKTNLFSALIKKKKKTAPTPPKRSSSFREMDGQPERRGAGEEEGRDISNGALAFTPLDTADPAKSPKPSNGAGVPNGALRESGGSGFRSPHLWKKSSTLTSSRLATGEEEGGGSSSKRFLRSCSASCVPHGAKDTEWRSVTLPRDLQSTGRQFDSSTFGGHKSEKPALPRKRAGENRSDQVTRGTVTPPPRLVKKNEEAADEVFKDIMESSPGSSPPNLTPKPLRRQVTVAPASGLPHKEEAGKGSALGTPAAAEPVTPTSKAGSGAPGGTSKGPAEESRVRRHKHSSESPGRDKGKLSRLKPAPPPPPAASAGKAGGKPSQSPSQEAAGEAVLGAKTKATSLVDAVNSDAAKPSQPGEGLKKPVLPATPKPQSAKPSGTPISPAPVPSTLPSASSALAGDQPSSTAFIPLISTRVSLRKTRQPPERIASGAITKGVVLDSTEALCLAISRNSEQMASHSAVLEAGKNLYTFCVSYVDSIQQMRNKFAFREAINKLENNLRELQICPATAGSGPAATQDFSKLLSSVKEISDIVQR
Chain of UniProt P22612 (whole entry, looked up): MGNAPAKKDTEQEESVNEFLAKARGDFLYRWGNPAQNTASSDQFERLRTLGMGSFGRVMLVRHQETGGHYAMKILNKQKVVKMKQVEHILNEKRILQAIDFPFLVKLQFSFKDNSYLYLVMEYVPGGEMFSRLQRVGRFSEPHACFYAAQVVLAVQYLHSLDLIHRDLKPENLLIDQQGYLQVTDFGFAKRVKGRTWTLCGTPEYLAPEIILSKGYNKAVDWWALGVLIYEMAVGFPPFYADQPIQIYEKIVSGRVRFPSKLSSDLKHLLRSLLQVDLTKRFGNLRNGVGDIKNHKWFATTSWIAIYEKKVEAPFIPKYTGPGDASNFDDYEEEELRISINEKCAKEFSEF
Chain of UniProt P11802 (whole entry, looked up): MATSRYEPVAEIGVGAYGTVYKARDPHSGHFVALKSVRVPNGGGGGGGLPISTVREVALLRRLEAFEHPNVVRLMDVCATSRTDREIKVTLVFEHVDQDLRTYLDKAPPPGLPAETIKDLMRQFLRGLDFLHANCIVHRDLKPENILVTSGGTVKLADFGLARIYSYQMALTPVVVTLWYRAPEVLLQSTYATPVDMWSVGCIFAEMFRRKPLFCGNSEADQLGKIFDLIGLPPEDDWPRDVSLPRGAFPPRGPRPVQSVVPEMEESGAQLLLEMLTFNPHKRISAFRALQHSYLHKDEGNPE

Series 1
Structure (SMILES): CC(C)n1cnc(-c2ccc(F)cc2)c1-c1ncc(C(=O)Nc2ccc(N3CCN(C)CC3)cc2)[nH]1
method | measured | species | route | dose | notes | patients with adverse event [%]
Phase 2a trial | blood urea increased | human, idiopathic pulmonary fibrosis |  | 60 mg once daily | grade 3 | 0
 | AST increase | patients with idiopathic pulmonary fibrosis |  | 30 mg twice daily | trial, without standard of care | 0
Phase 2a trial | hypocalcaemia | human, idiopathic pulmonary fibrosis |  | 30 mg once daily | grade 1 | 0
Phase 2a trial | hypoalbuminaemia | human, idiopathic pulmonary fibrosis |  | 60 mg once daily | grade 3 | 0
Phase 2a trial | hyperlipidaemia | human, idiopathic pulmonary fibrosis |  | 60 mg once daily | grade 2 | 0
Phase 2a trial | haemorrhoids | human, idiopathic pulmonary fibrosis |  | all compound arms | grade 5 | 0
Phase 2a trial | blood urea increased | human, idiopathic pulmonary fibrosis |  | 30 mg once daily | grade 3 | 0
Phase 2a trial | hypertriglyceridaemia | human, idiopathic pulmonary fibrosis |  | 60 mg once daily | grade 1 | 0
Phase 2a trial | haemoptysis | human, idiopathic pulmonary fibrosis |  | all compound arms | grade 4 | 0
 | abnormal liver function test, grade 1 | idiopathic pulmonary fibrosis patients | oral | 30 mg once daily |  | 0

Series 2 — organism: Sarcocystis neurona; observed: parasite growth; tested at: 10 µM; time: 96 h; baseline: untreated
SMILES | log2 fold change
CC(=O)[C@H]1CC[C@H]2[C@@H]3CCC4=CC(=O)CC[C@]4(C)[C@H]3CC[C@]12C | -0.16
CCc1nn(CCCN2CCN(c3cccc(Cl)c3)CC2)c(=O)n1CCOc1ccccc1 | -1.66
O=C1c2cccc3c2[C@H](CCC3)CN1[C@@H]1CN2CCC1CC2 | -0.08
CC1Cc2ccccc2N1NC(=O)c1ccc(Cl)c(S(N)(=O)=O)c1 (stereo not drawn) | 0.43
NS(=O)(=O)c1cc2c(cc1C(F)(F)F)NCNS2(=O)=O | 0.27
CO[C@@H]1[C@@H](O[C@@H]2O[C@H](C)[C@@H](O[C@H]3C[C@@](C)(O)[C@@H](OC(=O)CC(C)C)[C@H](C)O3)[C@H](N(C)C)[C@H]2O)[C@@H](CC=O)C[C@@H](C)[C@@H](O)/C=C/C=C/C[C@@H](C)OC(=O)C[C@H]1OC(C)=O | -0.73
NC(=O)c1ncn([C@@H]2O[C@H](CO)[C@@H](O)[C@H]2O)n1 | 0.36
CCOC(=O)OC(C)OC1=C(C(=O)Nc2ccccn2)N(C)S(=O)(=O)c2ccccc21 (stereo not drawn) | 0.31
CC[C@]1(O)C[C@@H]2CN(CCc3c([nH]c4ccccc34)[C@@](C(=O)OC)(c3cc4c(cc3OC)N(C)[C@H]3[C@@](O)(C(N)=O)[C@H](O)[C@]5(CC)C=CCN6CC[C@]43[C@@H]65)C2)C1 | -0.16
C#C[C@]1(O)CC[C@H]2[C@@H]3CCC4=Cc5oncc5C[C@]4(C)[C@H]3CC[C@@]21C | -0.18
CC(=O)OCC(=O)[C@@]12OC(C)(C)O[C@@H]1C[C@H]1[C@@H]3C[C@H](F)C4=CC(=O)C=C[C@]4(C)[C@@]3(F)[C@@H](O)C[C@@]12C | 0.42
C[C@H]1C[C@H]2[C@@H]3CCC4=CC(=O)C=C[C@]4(C)[C@@]3(F)[C@@H](O)C[C@]2(C)[C@@]1(O)C(=O)CO | 0.45
C[C@H]1COc2c(N3CCN(C)CC3)c(F)cc3c(=O)c(C(=O)O)cn1c23 | -0.1
COc1cc([C@@H]2c3cc4c(cc3[C@@H](O[C@@H]3O[C@@H]5CO[C@@H](C)O[C@H]5[C@H](O)[C@H]3O)[C@H]3COC(=O)[C@H]23)OCO4)cc(OC)c1O | 0.26
CC(=O)OCC(=O)[C@@]1(O)CC[C@H]2[C@@H]3CCC4=CC(=O)CC[C@]4(C)[C@H]3C(=O)C[C@@]21C | -0.08

Series 3 — Structure (SMILES): N#CC(=C(N)Sc1ccc(N)cc1)c1ccccc1C(F)(F)F; observed: enzyme activity; action: inhibitor; tested at: 0.5 µM; baseline: control
target | remaining activity
STK17A (Homo sapiens, UniProt Q9UEE5) | 82.6%
RPS6KA5 (Homo sapiens, UniProt O75582) | 97.9%
MAPKAPK3 (Homo sapiens, UniProt Q16644) | 102%
AXL (Homo sapiens, UniProt P30530) | 119%
SRMS (Homo sapiens, UniProt Q9H3Y6) | 105%
PDPK1 (Homo sapiens, UniProt O15530) | 103%
BLK (Homo sapiens, UniProt P51451) | 111%
ABL1 (Homo sapiens, UniProt P00519) | 106%
PHKG1 (Homo sapiens, UniProt Q16816) | 95.8%
HIPK2 (Homo sapiens, UniProt Q9H2X6) | 115%
Cyclin-dependent kinase 1, with cyclin B (CDK1, Homo sapiens, UniProt P06493) | 105%
EPHB1 (Homo sapiens, UniProt P54762) | 98.8%
WNK3 (Homo sapiens, UniProt Q9BYP7) | 94.9%
EPHA4 (Homo sapiens, UniProt P54764) | 99.3%
HIPK4 (Homo sapiens, UniProt Q8NE63) | 100%
EPHB4 (Homo sapiens, UniProt P54760) | 102%
MAP4K4 (Homo sapiens, UniProt O95819) | 93.4%
Cyclin-dependent kinase 6, with cyclin D3 (CDK6, Homo sapiens, UniProt Q00534) | 103%
RPS6KA6 (Homo sapiens, UniProt Q9UK32) | 83.9%
STK16 (Homo sapiens, UniProt O75716) | 98.4%
TSSK2 (Homo sapiens, UniProt Q96PF2) | 94.2%
Cyclin-dependent kinase 4, with cyclin D3 (CDK4, Homo sapiens, UniProt P11802) | 108%
PRKACG (Homo sapiens, UniProt P22612) | 101%
CAMK2B (Homo sapiens, UniProt Q13554) | 93.5%
DYRK3 (Homo sapiens, UniProt O43781) | 105%

Single results of other studies
Compound | cell line | method | tested at | time | notes | quantity | value
O=C(NCCN1CCOCC1)c1ccc2c(c1)C(=O)c1ccc(Nc3ccc(F)c(NC(=O)c4ccccc4)c3)cc1CC2 | HEK293T | high-content imaging | concentration not given | 24 h | recommended concentration | increased mitochondrial mass | 84%

For quick reference, copied from above (series 3):
target | remaining activity
HIPK4 (Homo sapiens, UniProt Q8NE63) | 100%
EPHB4 (Homo sapiens, UniProt P54760) | 102%
MAP4K4 (Homo sapiens, UniProt O95819) | 93.4%
